Experimental data pooled from the literature.
Numbered parts are unrelated; each lists some results of a single study.
Chain of UniProt O95747 (whole entry, looked up): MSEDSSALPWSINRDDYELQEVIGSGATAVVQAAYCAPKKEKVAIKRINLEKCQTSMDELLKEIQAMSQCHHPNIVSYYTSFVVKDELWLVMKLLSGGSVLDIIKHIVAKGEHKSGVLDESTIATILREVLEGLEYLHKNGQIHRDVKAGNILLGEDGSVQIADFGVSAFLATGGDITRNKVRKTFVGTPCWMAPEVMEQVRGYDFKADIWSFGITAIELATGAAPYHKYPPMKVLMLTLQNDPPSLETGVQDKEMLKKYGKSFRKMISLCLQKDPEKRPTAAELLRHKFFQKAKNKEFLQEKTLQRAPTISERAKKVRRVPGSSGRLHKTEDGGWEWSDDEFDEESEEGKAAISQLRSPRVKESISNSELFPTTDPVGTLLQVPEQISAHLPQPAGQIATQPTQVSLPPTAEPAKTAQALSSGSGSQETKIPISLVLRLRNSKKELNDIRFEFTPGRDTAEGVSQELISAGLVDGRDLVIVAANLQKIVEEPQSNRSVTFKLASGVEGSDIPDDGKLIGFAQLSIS
Chain of UniProt P00519 (whole entry, unmodified, looked up): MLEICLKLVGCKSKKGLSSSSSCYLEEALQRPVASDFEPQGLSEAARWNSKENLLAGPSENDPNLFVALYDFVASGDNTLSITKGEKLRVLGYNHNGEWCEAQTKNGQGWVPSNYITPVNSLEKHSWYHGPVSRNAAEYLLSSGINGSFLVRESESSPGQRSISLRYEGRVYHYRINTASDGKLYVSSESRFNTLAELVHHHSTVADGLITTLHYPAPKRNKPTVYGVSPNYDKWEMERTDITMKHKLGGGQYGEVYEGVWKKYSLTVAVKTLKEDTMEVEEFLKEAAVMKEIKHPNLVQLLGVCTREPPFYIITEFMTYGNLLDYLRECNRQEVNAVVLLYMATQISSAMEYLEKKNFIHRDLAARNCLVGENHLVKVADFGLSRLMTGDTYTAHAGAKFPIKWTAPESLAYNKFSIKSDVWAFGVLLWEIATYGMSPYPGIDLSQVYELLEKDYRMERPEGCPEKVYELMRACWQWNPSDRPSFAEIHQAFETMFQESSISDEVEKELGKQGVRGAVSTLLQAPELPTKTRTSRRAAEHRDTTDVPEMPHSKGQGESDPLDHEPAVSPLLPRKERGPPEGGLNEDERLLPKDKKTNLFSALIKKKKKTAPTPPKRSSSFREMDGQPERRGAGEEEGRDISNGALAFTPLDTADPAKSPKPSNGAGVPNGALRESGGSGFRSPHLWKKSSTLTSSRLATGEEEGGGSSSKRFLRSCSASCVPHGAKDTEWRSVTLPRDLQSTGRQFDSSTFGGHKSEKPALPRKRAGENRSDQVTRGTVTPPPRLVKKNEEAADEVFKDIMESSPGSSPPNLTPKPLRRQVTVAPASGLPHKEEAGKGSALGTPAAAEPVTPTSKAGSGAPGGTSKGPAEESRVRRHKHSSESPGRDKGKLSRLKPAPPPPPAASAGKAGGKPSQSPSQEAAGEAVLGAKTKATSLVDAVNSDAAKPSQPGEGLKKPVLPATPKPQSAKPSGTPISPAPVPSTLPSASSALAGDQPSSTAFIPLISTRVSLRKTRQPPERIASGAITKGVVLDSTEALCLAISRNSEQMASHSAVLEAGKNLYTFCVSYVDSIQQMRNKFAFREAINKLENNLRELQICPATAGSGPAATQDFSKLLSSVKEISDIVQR
Chain of UniProt Q9UHD2 (whole entry, looked up): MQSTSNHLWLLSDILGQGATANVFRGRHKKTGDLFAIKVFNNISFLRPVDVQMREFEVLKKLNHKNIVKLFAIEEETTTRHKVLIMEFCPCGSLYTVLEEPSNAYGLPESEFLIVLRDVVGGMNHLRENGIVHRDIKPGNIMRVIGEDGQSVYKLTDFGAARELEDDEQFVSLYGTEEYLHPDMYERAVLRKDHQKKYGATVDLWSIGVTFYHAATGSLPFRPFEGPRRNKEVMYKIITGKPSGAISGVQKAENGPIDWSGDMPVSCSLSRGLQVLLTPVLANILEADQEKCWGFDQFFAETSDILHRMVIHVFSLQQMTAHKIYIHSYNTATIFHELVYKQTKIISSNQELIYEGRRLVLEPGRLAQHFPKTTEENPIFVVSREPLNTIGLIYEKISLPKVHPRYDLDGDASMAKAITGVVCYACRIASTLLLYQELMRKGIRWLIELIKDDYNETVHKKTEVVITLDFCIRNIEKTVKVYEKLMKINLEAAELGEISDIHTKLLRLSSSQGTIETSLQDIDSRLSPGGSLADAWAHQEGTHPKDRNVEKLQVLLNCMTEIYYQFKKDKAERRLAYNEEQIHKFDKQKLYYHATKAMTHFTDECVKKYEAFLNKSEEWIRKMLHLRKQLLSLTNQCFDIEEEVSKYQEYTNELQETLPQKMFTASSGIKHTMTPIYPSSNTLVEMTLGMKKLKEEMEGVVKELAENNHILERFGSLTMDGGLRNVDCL
Chain of UniProt P54646 (whole entry, looked up): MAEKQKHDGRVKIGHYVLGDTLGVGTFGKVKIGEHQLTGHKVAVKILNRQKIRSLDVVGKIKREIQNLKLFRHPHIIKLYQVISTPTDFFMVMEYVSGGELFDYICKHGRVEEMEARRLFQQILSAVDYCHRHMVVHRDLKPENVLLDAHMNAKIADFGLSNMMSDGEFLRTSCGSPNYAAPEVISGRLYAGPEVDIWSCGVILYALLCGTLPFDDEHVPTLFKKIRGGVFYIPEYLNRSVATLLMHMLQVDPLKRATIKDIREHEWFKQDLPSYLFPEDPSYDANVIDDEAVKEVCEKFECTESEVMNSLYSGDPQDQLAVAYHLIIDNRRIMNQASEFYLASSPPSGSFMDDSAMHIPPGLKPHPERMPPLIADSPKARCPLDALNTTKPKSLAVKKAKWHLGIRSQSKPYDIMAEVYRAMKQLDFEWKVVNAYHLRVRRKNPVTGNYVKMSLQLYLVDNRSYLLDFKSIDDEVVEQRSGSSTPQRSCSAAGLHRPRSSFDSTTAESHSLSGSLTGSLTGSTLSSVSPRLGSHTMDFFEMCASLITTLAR
Chain of UniProt P36897 (whole entry, looked up): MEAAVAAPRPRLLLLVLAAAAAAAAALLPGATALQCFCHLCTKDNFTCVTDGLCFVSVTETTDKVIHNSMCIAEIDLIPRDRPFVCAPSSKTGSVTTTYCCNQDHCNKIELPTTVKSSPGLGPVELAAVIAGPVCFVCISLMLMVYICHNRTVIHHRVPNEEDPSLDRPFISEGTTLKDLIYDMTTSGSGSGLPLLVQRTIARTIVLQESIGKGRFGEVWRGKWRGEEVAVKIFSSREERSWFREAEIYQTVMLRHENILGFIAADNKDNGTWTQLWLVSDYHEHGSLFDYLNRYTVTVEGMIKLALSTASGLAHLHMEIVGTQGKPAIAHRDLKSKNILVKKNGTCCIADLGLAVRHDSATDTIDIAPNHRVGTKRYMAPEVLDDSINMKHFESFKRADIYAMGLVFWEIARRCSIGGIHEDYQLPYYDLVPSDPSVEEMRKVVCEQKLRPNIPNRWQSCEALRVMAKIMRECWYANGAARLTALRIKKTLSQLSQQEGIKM
Chain of UniProt Q02779 (whole entry, looked up): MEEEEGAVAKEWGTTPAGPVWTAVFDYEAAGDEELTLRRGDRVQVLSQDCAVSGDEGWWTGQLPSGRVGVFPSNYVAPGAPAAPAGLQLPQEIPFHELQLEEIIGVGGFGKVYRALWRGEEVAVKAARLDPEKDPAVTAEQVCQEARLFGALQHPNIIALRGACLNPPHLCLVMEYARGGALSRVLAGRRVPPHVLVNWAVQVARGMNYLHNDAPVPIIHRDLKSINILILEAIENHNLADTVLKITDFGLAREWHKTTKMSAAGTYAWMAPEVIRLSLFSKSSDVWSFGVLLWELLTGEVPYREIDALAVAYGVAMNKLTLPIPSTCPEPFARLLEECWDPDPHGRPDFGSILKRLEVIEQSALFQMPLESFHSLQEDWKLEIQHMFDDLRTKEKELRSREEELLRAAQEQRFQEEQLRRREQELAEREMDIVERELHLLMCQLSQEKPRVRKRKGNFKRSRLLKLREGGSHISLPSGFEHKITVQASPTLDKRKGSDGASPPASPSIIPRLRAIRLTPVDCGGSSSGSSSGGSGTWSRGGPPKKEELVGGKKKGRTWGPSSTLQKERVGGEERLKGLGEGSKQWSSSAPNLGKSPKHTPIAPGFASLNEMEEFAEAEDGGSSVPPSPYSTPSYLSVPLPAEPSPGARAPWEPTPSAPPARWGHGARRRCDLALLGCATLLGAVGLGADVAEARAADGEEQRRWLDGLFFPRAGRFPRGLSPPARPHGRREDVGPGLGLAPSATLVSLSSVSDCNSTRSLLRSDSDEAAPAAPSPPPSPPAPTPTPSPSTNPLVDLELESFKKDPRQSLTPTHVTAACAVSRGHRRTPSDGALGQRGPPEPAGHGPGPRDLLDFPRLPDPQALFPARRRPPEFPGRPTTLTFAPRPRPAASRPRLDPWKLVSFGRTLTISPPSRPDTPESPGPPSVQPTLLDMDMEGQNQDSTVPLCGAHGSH

Study 1
Structure (SMILES): Cc1nc(C2CCN(C(=O)c3ccc(OC(F)(F)F)cc3N)CC2)c2ncc(N3CCN(C)CC3)cc2n1
Technique: competition with immobilised ligand
Tested at: 1 µM
The remaining binding was 83% (MAP2K5 (Homo sapiens, UniProt Q13163); cell-free assay).
It gave 49% for remaining binding (OXSR1 (Homo sapiens, UniProt O95747); cell-free assay).
Ribosomal protein S6 kinase alpha-1, N-terminal kinase domain (RPS6KA1, Homo sapiens, UniProt Q15418); cell-free assay — remaining binding: 100%.
The remaining binding was 46% (ULK3 (Homo sapiens, UniProt Q6PHR2); cell-free assay).
For ROS1 (Homo sapiens, UniProt P08922); cell-free assay: remaining binding read 92%.
The remaining binding was 100% (PRKAA2 (Homo sapiens, UniProt P54646); cell-free assay).
For NEK1 (Homo sapiens, UniProt Q96PY6); cell-free assay: remaining binding read 97%.
The remaining binding was 100% (ERBB2 (Homo sapiens, UniProt P04626); cell-free assay).
It gave 93% for remaining binding (PDPK1 (Homo sapiens, UniProt O15530); cell-free assay).
The remaining binding was 100% (CSK (Homo sapiens, UniProt P41240); cell-free assay).
For PIK3CA (Homo sapiens, UniProt P42336); cell-free assay: remaining binding read 81%.
For TSSK3 (Homo sapiens, UniProt Q96PN8); cell-free assay: remaining binding read 100%.
It gave 100% for remaining binding (TBK1 (Homo sapiens, UniProt Q9UHD2); cell-free assay).
The remaining binding was 100% (TSSK1B (Homo sapiens, UniProt Q9BXA7); cell-free assay).
For MAP3K10 (Homo sapiens, UniProt Q02779); cell-free assay: remaining binding read 100%.
It gave 93% for remaining binding (PAK6 (Homo sapiens, UniProt Q9NQU5); cell-free assay).
The remaining binding was 100% (Tyrosine-protein kinase ABL1, phosphorylated (ABL1, Homo sapiens, UniProt P00519, E255K); binding).
The remaining binding was 100% (MAPK14 (Homo sapiens, UniProt Q16539); cell-free assay).

Study 2
Target: Diamine acetyltransferase 1 (Homo sapiens, UniProt P21673)
Action: inhibitor
Tested at: 10 µM
Reference: control
Residues (P21673 1-171): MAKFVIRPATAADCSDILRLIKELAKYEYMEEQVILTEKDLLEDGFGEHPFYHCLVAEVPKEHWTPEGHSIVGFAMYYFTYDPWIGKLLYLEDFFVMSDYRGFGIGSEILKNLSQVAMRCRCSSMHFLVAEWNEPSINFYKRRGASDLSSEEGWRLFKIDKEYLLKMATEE
With CCCCCCCC(=O)CCc1ccc(O)c(OC)c1 the remaining activity was 83.1%.
COC(=O)c1ccccc1O gave a remaining activity of 89.3%.
COc1cc2oc(-c3ccc(O)cc3)cc(=O)c2c(O)c1[C@@H]1O[C@H](CO)[C@@H](O)[C@H](O)[C@H]1O[C@@H]1O[C@H](CO)[C@@H](O)[C@H](O)[C@H]1O gave a remaining activity of 91.3%.
The remaining activity of CCCCCCCC/C=C/C(=O)O is reported as 73.8%.
O=C(/C=C/c1ccc(O)c(O)c1)O[C@H]1[C@H](O)C[C@](O)(C(=O)O)C[C@H]1OC(=O)/C=C/c1ccc(O)c(O)c1 gave a remaining activity of 101%.
COc1ccc(-c2cc(=O)c3c(OC)c(OC)c(OC)cc3o2)cc1OC gave a remaining activity of 96%.
For COc1cc2c(cc1OC)[C@@H](Cc1ccc(Oc3cc(C[C@@H]4c5cc(OC)c(OC)cc5CCN4C)ccc3O)cc1)N(C)CC2, the remaining activity was 97%.
The remaining activity of CCCCCCCC/C=C\CCCCCCCC(=O)OC is reported as 97.2%.
With OC[C@@H](O)C(O)[C@@H](O)CO (some centres unmarked) the remaining activity was 87.9%.

Study 3
Organism: Sarcocystis neurona
Effect on: parasite activity
Tested at: concentration not given
For O=C1NC(=O)N(C2CC(O)C(CO)O2)CC1F (centres unmarked), activity class read “inactive”.
Under activity class, COc1ccnc(C[S+]([O-])c2nc3ccc(OC(F)F)cc3[nH]2)c1OC (centres unmarked) is recorded as “inactive”.
Cl.c1ccc2c(c1)CCCC2C1=NCCN1 (centres unmarked) — result for activity class: “inactive”.
For OC[C@H]1O[C@@H](n2cnc3c(NC4CCCC4)nc(Cl)nc32)[C@H](O)[C@@H]1O, activity class read “inactive”.
For C[C@]12C=CC(=O)C=C1CC[C@@H]1[C@@H]2[C@@H](O)C[C@@]2(C)[C@H]1CC[C@]2(O)C(=O)COC(=O)CCC(=O)[O-].[Na+], activity class read “inactive”.
C[C@]12CC[C@@H]3c4ccc(OS(=O)(=O)O)cc4CC[C@H]3[C@@H]1CCC2=O — result for activity class: “inactive”.
For CC1CCN(CCCC(=O)c2ccc(F)cc2)CC1.Cl, activity class read “inactive”.
For CCC1=C[C@@H]2CN(C1)Cc1c([nH]c3ccccc13)[C@@](C(=O)OC)(c1cc3c(cc1OC)N(C)[C@H]1[C@@](O)(C(=O)OC)[C@H](OC(C)=O)[C@]4(CC)C=CCN5CC[C@]31[C@@H]54)C2.O=C(O)C(O)C(O)C(=O)O.O=C(O)C(O)C(O)C(=O)O, activity class read “inactive”.
For CC(C)C[C@H](NC(=O)[C@@H](COC(C)(C)C)NC(=O)[C@H](Cc1ccc(O)cc1)NC(=O)[C@H](CO)NC(=O)[C@H](Cc1c[nH]c2ccccc12)NC(=O)[C@H](Cc1cnc[nH]1)NC(=O)[C@@H]1CCC(=O)N1)C(=O)N[C@@H](CCCNC(=N)N)C(=O)N1CCC[C@H]1C(=O)NNC(N)=O, activity class read “inactive”.
Under activity class, Cl.NC[C@H](O)c1ccc(O)c(O)c1 is recorded as “inactive”.
CC(=O)O.CNC(=N)NCCC[C@H](N)C(=O)O: activity class “inactive”.
COc1cc(N)c(Cl)cc1C(=O)NC1CCN(CCCOc2ccc(F)cc2)CC1OC.O (centres unmarked): activity class “inactive”.

Study 4
Structure (SMILES): CC[n+]1c(/C=C/N(C)c2ccccc2)n(-c2ccccc2)c2ccc(-c3nc4ccccc4s3)cc21
Effect on: enzyme activity
Action: inhibitor
Tested at: 0.5 µM
Reference: control
NEK2 (Homo sapiens, UniProt P51955) — remaining activity: 100%.
STK11 (Homo sapiens, UniProt Q15831) — remaining activity: 93.1%.
For PRKACA (Homo sapiens, UniProt P17612): remaining activity read 103%.
For STK39 (Homo sapiens, UniProt Q9UEW8): remaining activity read 81.1%.
It gave 94.2% for remaining activity (OXSR1 (Homo sapiens, UniProt O95747)).
It gave 77.7% for remaining activity (PRKCA (Homo sapiens, UniProt P17252)).
It gave 102% for remaining activity (TGFBR1 (Homo sapiens, UniProt P36897)).
The remaining activity was 98.6% (IKBKB (Homo sapiens, UniProt O14920)).
For CAMKK2 (Homo sapiens, UniProt Q96RR4): remaining activity read 115%.
The remaining activity was 103% (Cyclin-dependent kinase 5, with p25 (CDK5, Homo sapiens, UniProt Q00535)).
It gave 95.1% for remaining activity (TGFBR2 (Homo sapiens, UniProt P37173)).
